Experimental data pooled from the literature.
Each line is one published result; not all experiments were run side by side. Numbers after ± are the reported error.

Compound	assay	system	conditions	scale	half-life
CCCCCN(C)CCC(O)(P(=O)(O)O)P(=O)(O)OP(=O)(O)OC[C@H]1O[C@@H](n2ccc(N)nc2=O)C(F)(F)[C@@H]1O (stereo partly shown)	hydrolysis	HEPES buffer	pH 6.2, 37 °C		6.4 h
Cn1c(=O)n(C2CCC(=O)NC2=O)c2cccc(C#CCOC3CCN(C[C@H]4CC[C@H](n5cc(NC(=O)c6cnn7ccc(N8C[C@H]9C[C@@H]8CO9)nc67)c(C(F)F)n5)CC4)CC3)c21 (stereo partly shown)	H/D exchange		0.5 µM, pH 7.8, mean of replicates		2.3 h
CN(C)CCCCC(=O)Nc1ccc(NC(=S)NC(=O)c2ccc(C(C)(C)C)cc2)cc1		male human serum	150 µM, 37 °C		0.8 ± 0.5 h
COc1ccc2[nH]c([S+]([O-])Cc3ncc(C)c(OC)c3C)nc2c1 (stereo not shown)		healthy Chinese volunteers, plasma	oral, 20 mg, fasted, all CYP2C19 genotypes		1.08 ± 0.57 h
CC(C)C[C@H](NC(=O)[C@H](Cc1ccc(O)cc1)NC(=O)[C@H](CCCCN)NC(=O)[C@H](CO)NC(=O)[C@H](CCCNC(=N)N)NC(=O)[C@H](CCC(N)=O)NC(=O)[C@H](CO)NC(=O)[C@@H]1CCCN1C(=O)[C@H](CCCNC(=N)N)NC(=O)[C@H](CCCCN)NC(=O)[C@H](CCC(N)=O)NC(=O)c1ccc2c(c1)C(=O)OC21c2ccc(O)cc2Oc2cc(O)ccc21)C(N)=O	CE-LIF	HeLa cytosolic lysate	37 °C		0.0333 ± 0.00333 h
CCC1=C(CC)/C(=C/N[C@H]2CC[C@H](C)CC2)N=C1c1ccc[nH]1		mouse liver microsomes	1 µM, pH 7.4		0.625 h
CC1=NN(/C(=N/c2nnc(C)s2)Nc2ccc(C)c(C)c2)C(c2cc(F)c(F)c(F)c2)S1 (stereo not shown)	plasma stability	human plasma			0.73 h
CC[C@H](C)[C@H](NC(=O)[C@@H](NC(=O)[C@@H](NC(=O)[C@@H](NC(=O)[C@@H]1CCCN1C(=O)[C@H](Cc1c[nH]cn1)NC(=O)[C@@H]1CCCN1C(=O)CN)C(C)(C)C)[C@@H](C)CC)C(C)(C)C)C(=O)N[C@H](C(=O)NCC(=O)N1[C@H](C(=O)N[C@@H](Cc2c[nH]cn2)C(=O)N[C@@H](CCC(=O)O)C(=O)N[C@@H](CCC(=O)O)C(N)=O)CSC1(C)C)[C@@H](C)O		human serum 25%	5 µM, 37 °C		~6 h
N#CC[C@H](C1CCCC1)n1cc(-c2ncnc3[nH]ccc23)cn1		children, plasma	oral, first dose		2.3 ± 0.9 h
Ic1nccs1		PBS with 5% acetonitrile	250 µM, pH 7.4, no glutathione		54.8 h
CC(C)C[C@@H](NC(=O)[C@H](Cc1ccccc1)NC(=O)CNC(=O)[C@@H](C)NC(=O)[C@H](Cc1ccc(O)cc1)NC(=O)[C@H](C)NC(=O)c1ccc[n+](C)c1)C(=O)O	HPLC-UV	20% rat brain homogenate	pH 7.4		16.1 h
C[C@H](N)C(=O)N[C@@H](C[SeH])C(=O)N1CCC[C@H]1C(=O)N[C@@H](CO)C(=O)N[C@@H](CC(=O)O)C(=O)N[C@@H](Cc1ccc(O)cc1)C(=O)N[C@@H](C[SeH])C(=O)N[C@@H](CCCCN)C(=O)N[C@@H](CCCNC(=N)N)C(=O)N[C@@H](CCCCN)C(=O)NCC(=O)N[C@@H](C[SeH])C(=O)NCC(N)=O	HRMS	Tris-HCl buffer with TCEP, air	50 µM, pH 7.5, 4 °C, together with: EDTA 100 equiv		132 h
CCCCCCCCCCCCCCCC(=O)N[C@@H](CCC(=O)NCCCC[C@@H]1NC(=O)[C@H]([C@@H](C)CC)NC(=O)[C@@H](NC(=O)[C@@H]2CCCN2C(=O)[C@H](Cc2ccccc2)NC(=O)[C@H](Cc2c[nH]cn2)NC(=O)[C@@H](NC(=O)[C@H](CC(=O)O)NC(=O)CC(C)C)[C@@H](C)O)CSSC[C@@H](C(=O)N[C@@H](CCCCN)C(N)=O)NC(=O)CNC(=O)[C@H](CCCCN)NC(=O)[C@H](CO)NC(=O)[C@H](CCCNC(=N)N)NC(=O)[C@@H]2CCCN2C(=O)[C@H](CCC(=O)O)NC(=O)[C@H](Cc2ccccc2)NC1=O)C(=O)O		healthy volunteers, plasma	subcutaneous, 30 mg single, lyophilised formulation		26.6 ± 6.39 h
COCCOc1cnc2ccn([C@H](C)c3nnc4c(F)cc(-c5cnn(C)c5)cn34)c(=O)c2c1		patients, plasma	oral, 100 mg once daily, day 1		6.7 h
COC(=O)[C@H](N)CSSC[C@@H](N)C(=O)OC		human plasma	100 µM, 37 °C		0.473 h
NC1CCc2nc(-c3ccncc3)nc(Nc3cccc(F)c3)c2C1 (stereo not shown)		mouse liver microsomes	4.6 µM, pH 7.4		> 1 h
Nc1nnc(-c2ccccc2O)cc1N1CCN(Cc2ccc(OCCOCCNc3cccc4c3C(=O)N(C3CCC(=O)NC3=O)C4=O)c(F)c2)CC1 (stereo not shown)		mouse liver microsomes	together with: ritonavir 10 µM	baseline: compound alone	increased
CC(=O)O[C@H]1C(=O)[C@@]2(C)[C@H]([C@H](OC(=O)c3ccccc3)[C@]3(O)C[C@H](OC(=O)[C@H](OC(=O)OCc4cc(P(=O)(O)O)ccc4OP(=O)(O)O)[C@@H](NC(=O)c4ccccc4)c4ccccc4)C(C)=C1C3(C)C)[C@]1(OC(C)=O)CO[C@@H]1C[C@@H]2O		HBSS	10 µM, 2 h incubation, pH 6.5		> 2 h
OCc1ccc(-c2nn(Cc3ccccc3)c3ccccc23)o1		human liver microsomes	together with: NADH		0.12 h
CC(C)(C)c1nc(-c2cccc(N(Cc3cc(C(=O)[O-])ccc3OP(=O)([O-])[O-])S(=O)(=O)c3c(F)cccc3F)c2F)c(-c2ccnc(N)n2)s1.[Na+].[Na+].[Na+]		simulated gastric fluid	10 µM, 2 h incubation, pH 1.2		> 2 h
Oc1ccc([C@@H](O)c2cc(-c3ncnc4cc(N5CCOCC5)ccc34)c(F)cc2Cl)nn1	geometric mean	healthy volunteers, plasma	oral, 100 mg, fasted tablet		3.8 h
CN[C@H](CC(C)C)C(=O)N[C@H]1C(=O)N[C@@H](CC(N)=O)C(=O)N[C@H]2C(=O)N[C@H]3C(=O)N[C@H](C(=O)N[C@H](C(=O)O)c4cc(O)cc(O)c4-c4cc3ccc4O)[C@H](O)c3ccc(c(Cl)c3)Oc3cc2cc(c3O[C@@H]2O[C@H](CO)[C@@H](O)[C@H](O)[C@H]2O[C@H]2C[C@](C)(N)[C@H](O)[C@H](C)O2)Oc2ccc(cc2Cl)[C@H]1O		guinea pig, tissue cage fluid	intraperitoneal, 15 mg/kg, single dose		13.7 h

Compound	assay	system	conditions	scale	half-life
O=C(CCC(=O)c1cc(C(F)(F)F)cc(C(F)(F)F)c1)ON1C(=O)CCC1=O	HPLC-MS	BBS buffer	pH 10.2		< 0.0167 h
N#CCNC(=O)c1ccc(-c2ccnc(Nc3ccc(N4CCOCC4)cc3)n2)cc1		healthy volunteers, plasma	oral, 200 mg single dose, day 1, given alone, fasted		6.41 h
COC(=O)[C@H](N)CSN=O		PBS	10 µM, pH 7.72, room temperature, dark		6.77 ± 0.505 h
Cc1cccc(CNC(=O)c2cn(CCNC(=O)c3ccccc3Sc3c([N+](=O)[O-])ncn3C)c3cc4c(cc3c2=O)OCO4)n1	blood stability	Beagle dog blood	1 µM, 37 °C		3.55 h
C[C@H](NC(=O)/C(C#N)=C/c1cccc(Br)n1)c1ccccc1	LC-MS/MS	patients, plasma	oral, 2 mg/kg, cycle 1 day 8		1.1 h
Cc1ccc2c(c1)C(=O)[C@]1(O)CCN(c3ccc4nc(C)ccc4c3)C1=N2.Cl		plasma	oral, 10 mg/kg		10.3 h
CC(C)[N+](C)(CCOC(=O)C1c2ccccc2Oc2ccccc21)C(C)C		human whole blood	5 µM		0.534 h
Cc1c(C(=O)O)ccc2c3n(nc12)[C@@H]1[C@H](C3)N(CC2CC2)[C@@]2(C(=O)Nc3cc(Cl)ccc32)[C@H]1c1cccc(Cl)c1F		cancer patients, plasma	oral, 45 mg day 1 every 3 weeks, geometric mean, cycle 1		42 h
CC(=O)O[C@]1(C(C)=O)CC[C@H]2[C@@H]3C=C(Cl)C4=CC(=O)[C@@H]5C[C@@H]5[C@]4(C)[C@H]3CC[C@@]21C	substrate depletion	phenobarbital/β-naphthoflavone-induced rat liver microsomes	1 µM, pH 7.4, 37 °C, together with: NADPH		0.221 h
CCCCC[C@H](O)CC[C@@H]1[C@H]2Cc3cccc(OCC(=O)O)c3C[C@H]2C[C@H]1O	LC-MS/MS	Japanese PAH patients, female, plasma	inhaled, 54 µg, geometric mean		0.74 h
Cc1nc2ccc(OCc3ccc(C(F)(F)F)cc3)cc2[nH]1		human liver S9	1 µM, pH 7.4		3.73 h
N#Cc1ccc(Nc2nc(N)cc(Oc3c(F)cc(-c4ccc(C#N)cc4)cc3F)n2)cc1		monkey plasma, diluted in PBS	1 µM		16.2 h
O=C(Cc1ccc2ccccc2c1)Nc1cc(C2CCC2)[nH]n1		mouse liver S9	1 µM		0.469 h
Cc1c(C)n(Cc2cccc(OC(C)(C)C(=O)O)c2)c2ccc(C(=O)N[C@@H](C)c3ccc(C(C)(C)C)cc3)cc12		human liver microsomes	1 µM, together with: microsomes 1 mg/mL		> 1 h
O=C1CC2(CCCC2)CC(=O)N1CCCCN1CCN(c2ncccn2)CC1	substrate depletion	phenobarbital/β-naphthoflavone-induced rat liver microsomes	1 µM, pH 7.4, 37 °C, together with: NADPH		0.055 h
C[C@@H](NC(=O)N1C(=O)[C@H](Cc2ccnc(N)c2)[C@H]1C(=O)O)C1CCCCC1		healthy adult Chinese volunteers, plasma	continuous intravenous infusion, 1.0 mg/kg/h, day 6		1.27 h
CC1=NN(/C(=N\c2ccccc2)Nc2nnc(C)s2)C(c2ccc(C)cc2)S1 (stereo not shown)	plasma stability	rat plasma			0.0983 h
N#Cc1cccc(-c2ccc3ncc(-c4cc(F)cc(F)c4)c(N4CCC(N)CC4)c3c2)c1O		healthy male, whole blood total radioactivity	oral, 20 mg, geometric mean		21 h
N[C@@H](CC(=O)O)C(=O)OC(C(=O)O)c1ccccc1[N+](=O)[O-].O=C(O)C(F)(F)F (mixture of isomers)	hydrolysis, 1H NMR	aqueous citrate-ammonium sulfate, 12.5% DMSO-d6	pH 4.2, room temperature, dark, isomer B		29 ± 2 h
O=c1c2cc(Cl)ccc2[nH]c(=S)n1Cc1cccnc1	plasma stability	mouse plasma			> 6.22 h
CCCCCCNC(=O)n1cc(C(F)(F)F)c(=O)[nH]c1=O		mouse plasma	0.1 mM, 37 °C		0.0167 h

Some of these lines once more:
Compound	assay	system	conditions	scale	half-life
CC(C)C[C@@H](NC(=O)[C@H](Cc1ccccc1)NC(=O)CNC(=O)[C@@H](C)NC(=O)[C@H](Cc1ccc(O)cc1)NC(=O)[C@H](C)NC(=O)c1ccc[n+](C)c1)C(=O)O	HPLC-UV	20% rat brain homogenate	pH 7.4		16.1 h
CCCCC[C@H](O)CC[C@@H]1[C@H]2Cc3cccc(OCC(=O)O)c3C[C@H]2C[C@H]1O	LC-MS/MS	Japanese PAH patients, female, plasma	inhaled, 54 µg, geometric mean		0.74 h
CC(C)[N+](C)(CCOC(=O)C1c2ccccc2Oc2ccccc21)C(C)C		human whole blood	5 µM		0.534 h
CCC1=C(CC)/C(=C/N[C@H]2CC[C@H](C)CC2)N=C1c1ccc[nH]1		mouse liver microsomes	1 µM, pH 7.4		0.625 h
COCCOc1cnc2ccn([C@H](C)c3nnc4c(F)cc(-c5cnn(C)c5)cn34)c(=O)c2c1		patients, plasma	oral, 100 mg once daily, day 1		6.7 h
